Measured values pooled from the literature.
Lines come from different studies, so protocols differ. Several values in a cell are separate wells, animals, samples, runs or records. ± gives the spread as reported.

`O=P(O)(O)Oc1c2c(c(OP(=O)(O)O)c3c1C1CC3c3cc4ccccc4cc31)C1CC2c2cc3ccccc3cc21` gave an association constant of 80 ± 6 M⁻¹ (DOPC; 1H NMR titration; methanol-d4; CH2-N(Me)3 signal).
For `CC(C)C[C@H](NC(=O)[C@H](CC(=O)O)NC(=O)[C@@H](NC(=O)[C@H](CCC(=O)O)NC(=O)[C@H](CCCCN)NC(=O)[C@H](Cc1ccc(O)cc1)NC(=O)[C@H](CCCCN)NC(=O)[C@H](Cc1c[nH]cn1)NC(=O)CNC(=O)CN)[C@@H](C)O)C(N)=O`, the initial rate was 314 nM/min (HCV IRES RNA; RNA cleavage, gel electrophoresis; hepatitis C virus; 10 µM, together with: co-reagents 1 mM, fluorescein-labelled HCV RNA 10 µM).
`CC[C@@H]1CN2CCc3c([nH]c4cccc(OC)c34)[C@@H]2C[C@@H]1/C(=C\OC)C(=O)OC` gave an IC50 of 1 µg/mL and 0.96 µg/mL (rabbit anti-mitragynine polyclonal IgG; antigen binding, competitor, competitive indirect ELISA; 5% methanol; 60 min antibody-standard, 90 min antibody-antigen incubation).
`Nc1ncc(-c2cc(-c3cnn(CC(F)(F)F)c3)ncc2F)nc1C(=O)NC1CNCC(F)C1` (centres unmarked) gave a remaining binding of 94% (ABL1(H396P)-nonphosphorylated; KINOMEscan competition binding; 1 µM; relative to: DMSO control).
`Cn1ccc2cc(-n3c(=O)[nH]c4sc5c(c4c3=O)CCCC5)ccc21` has an inhibition of -2% (rat NMDA receptor; radioligand binding; 10 µM, phencyclidine site).
`COc1ccccc1-c1n[nH]c2nc(NC3CCN(C(=O)Cc4ccc(F)cc4F)CC3)ncc12` gave a relative abundance of 0.87 (Leishmania donovani LINJ.11.1000; bead binding competition; Leishmania donovani extract; 10 µM; relative to: vehicle).
`C#CCNC(=O)CN(Cc1ccc(-c2ccc(F)c(CN3CCS(=O)(=O)CC3)n2)cc1)C(=O)c1ccc(C2(C(F)(F)F)N=N2)cc1` gave a photoaffinity enrichment of over 13 fold (mitochondrial carnitine/acylcarnitine carrier; chemical proteomics; CHO cells overexpressing CB2; 10 µM; relative to: untreated).
With `N#Cc1ccccc1CC(N)C(=O)NC(Cc1ccc(Cl)cc1Cl)C(=O)NC(CC(=O)NCCCc1cccnc1)Cc1ccc(F)cc1` (centres unmarked) the IC50 was over 10000 nM (human protease panel; enzyme activity, inhibitor; off-target).
The remaining activity of `Cc1ccc(N2CC3CCC(C2)N3C)cc1C(=O)N[C@H](C)c1cc(-c2cnn(C)c2)nc2ccccc12` is reported as 100% and 102% and 101% and 103% (trypsin; enzyme activity; concentration not given).
`Cc1cc(O)cc(C)c1C[C@H](N)C(=O)N[C@H](CCCNC(=N)N)C(=O)N[C@@H](Cc1ccccc1)C(=O)N[C@@H](CCCCN)C(=O)NCCCCCCNC(=O)[C@H](Cc1ccccc1)NC(=O)[C@H](CC1CCCCC1)NC[C@@H]1Cc2ccccc2CN1C(=O)[C@@H](N)Cc1ccc(O)cc1` gave a Ke of 5.89 ± 0.71 nM (delta opioid receptor (mouse); antagonist; mouse vas deferens; together with: DPDPE).
For `Cc1ccc2c(n1)c(-c1cccc(S(C)(=O)=O)c1)c(C)n2C/C(F)=C/CN`, the inhibition was 17% (GABAA receptor (rat); binding, radioligand binding; rat tissue; 10 µM, Ro-15-1788).
With `Cc1cc(O)cc(C)c1C[C@H](N)C(=O)N[C@H](CCCNC(=N)N)C(=O)N[C@@H](Cc1ccccc1)C(=O)N[C@@H](CCCCN)C(=O)NCCNC(=O)[C@@H]1Cc2ccccc2CN1C(=O)[C@@H](N)Cc1c(C)cc(O)cc1C` the Ke was 9.11 ± 0.79 nM (delta opioid receptor (mouse); antagonist; mouse vas deferens; together with: DPDPE).
`CSCC[C@@H]1NC(=O)[C@H](Cc2ccccc2)NC(=O)CNC(=O)[C@H](NC(=O)[C@@H](N)Cc2ccc(O)cc2)CSSC[C@@H](C(=O)N[C@@H](Cc2c[nH]c3ccccc23)C(=O)NCc2cc(C(F)(F)F)cc(C(F)(F)F)c2)NC(=O)[C@@H]2CCCN2C1=O` has an IC50 of 1000 ± 200 nM (mu opioid receptor, guinea pig; inhibition of contraction, agonist; electrically stimulated guinea pig ileum).
For `COc1ccccc1-c1n[nH]c2nc(N[C@H]3CC[C@H](NS(=O)(=O)CC(C)C)CC3)ncc12`, the relative abundance was 0.85 (Leishmania donovani LINJ.11.1000; bead binding competition; Leishmania donovani extract; 20 µM; relative to: vehicle).
With `Cc1[nH]nc2c1N=C(c1ccccc1Cl)c1cnc(N3CCOCC3)cc1N2` the inhibition was 73% (GABAA receptor flunitrazepam site, rat; radioligand binding; brain; 10 µM).
For `CC[C@H](C)[C@H](NC(=O)[C@H](CC(C)C)NC(=O)[C@H](CC(C)C)NC(=O)[C@H](CC(=O)O)NC(=O)[C@@H](NC(=O)[C@H](CCC(=O)O)NC(=O)[C@H](CCCCN)NC(=O)[C@H](Cc1ccc(O)cc1)NC(=O)[C@H](CCCCN)NC(=O)[C@H](Cc1c[nH]cn1)NC(=O)CNC(=O)CN)[C@@H](C)O)C(=O)N[C@@H](CC(C)C)C(=O)N[C@@H](Cc1ccccc1)C(=O)N[C@@H](CCCCN)C(=O)N[C@@H](CC(=O)O)C(=O)N[C@@H](CC(=O)O)C(=O)N[C@@H](Cc1ccc(O)cc1)C(=O)N[C@@H](Cc1ccccc1)C(=O)N[C@@H](C)C(=O)N[C@@H](CCCCN)C(=O)N[C@@H](CCCCN)C(=O)N[C@@H](CC(N)=O)C(=O)N[C@@H](CCC(=O)O)C(=O)N[C@@H](CCC(=O)O)C(=O)N[C@@H](CCCNC(=N)N)C(=O)N[C@@H](CCCCN)C(N)=O`, “initial cleavage rate” read 2.3 ± 0.1 %/min (HCV IRES RNA; MALDI-TOF mass spectrometry, refers to: 5'-hydroxyl products; hepatitis C virus).
With `Cc1cc(O)cc(C)c1C[C@H](N)C(=O)N[C@H](CCCNC(=N)N)C(=O)N[C@@H](Cc1ccccc1)C(=O)N[C@@H](CCCCN)C(=O)NNC(=O)[C@H](Cc1ccccc1)NC(=O)[C@H](CC1CCCCC1)NC[C@@H]1Cc2ccccc2CN1C(=O)[C@@H](N)Cc1ccc(O)cc1` the Ke was 11.2 ± 0.3 nM (delta opioid receptor (mouse); antagonist; mouse vas deferens; together with: DPDPE).

For quick reference, copied from above:
For `CC[C@H](C)[C@H](NC(=O)[C@H](CC(C)C)NC(=O)[C@H](CC(C)C)NC(=O)[C@H](CC(=O)O)NC(=O)[C@@H](NC(=O)[C@H](CCC(=O)O)NC(=O)[C@H](CCCCN)NC(=O)[C@H](Cc1ccc(O)cc1)NC(=O)[C@H](CCCCN)NC(=O)[C@H](Cc1c[nH]cn1)NC(=O)CNC(=O)CN)[C@@H](C)O)C(=O)N[C@@H](CC(C)C)C(=O)N[C@@H](Cc1ccccc1)C(=O)N[C@@H](CCCCN)C(=O)N[C@@H](CC(=O)O)C(=O)N[C@@H](CC(=O)O)C(=O)N[C@@H](Cc1ccc(O)cc1)C(=O)N[C@@H](Cc1ccccc1)C(=O)N[C@@H](C)C(=O)N[C@@H](CCCCN)C(=O)N[C@@H](CCCCN)C(=O)N[C@@H](CC(N)=O)C(=O)N[C@@H](CCC(=O)O)C(=O)N[C@@H](CCC(=O)O)C(=O)N[C@@H](CCCNC(=N)N)C(=O)N[C@@H](CCCCN)C(N)=O`, “initial cleavage rate” read 2.3 ± 0.1 %/min (HCV IRES RNA; MALDI-TOF mass spectrometry, refers to: 5'-hydroxyl products; hepatitis C virus).
